Published values of several laboratories.
Each line is one published result; not all experiments were run side by side. Numbers after ± are the reported error.
Target: Receptor tyrosine-protein kinase erbB-4 (ERBB4, Homo sapiens, UniProt Q15303)
Chain of UniProt Q15303 (whole entry, looked up): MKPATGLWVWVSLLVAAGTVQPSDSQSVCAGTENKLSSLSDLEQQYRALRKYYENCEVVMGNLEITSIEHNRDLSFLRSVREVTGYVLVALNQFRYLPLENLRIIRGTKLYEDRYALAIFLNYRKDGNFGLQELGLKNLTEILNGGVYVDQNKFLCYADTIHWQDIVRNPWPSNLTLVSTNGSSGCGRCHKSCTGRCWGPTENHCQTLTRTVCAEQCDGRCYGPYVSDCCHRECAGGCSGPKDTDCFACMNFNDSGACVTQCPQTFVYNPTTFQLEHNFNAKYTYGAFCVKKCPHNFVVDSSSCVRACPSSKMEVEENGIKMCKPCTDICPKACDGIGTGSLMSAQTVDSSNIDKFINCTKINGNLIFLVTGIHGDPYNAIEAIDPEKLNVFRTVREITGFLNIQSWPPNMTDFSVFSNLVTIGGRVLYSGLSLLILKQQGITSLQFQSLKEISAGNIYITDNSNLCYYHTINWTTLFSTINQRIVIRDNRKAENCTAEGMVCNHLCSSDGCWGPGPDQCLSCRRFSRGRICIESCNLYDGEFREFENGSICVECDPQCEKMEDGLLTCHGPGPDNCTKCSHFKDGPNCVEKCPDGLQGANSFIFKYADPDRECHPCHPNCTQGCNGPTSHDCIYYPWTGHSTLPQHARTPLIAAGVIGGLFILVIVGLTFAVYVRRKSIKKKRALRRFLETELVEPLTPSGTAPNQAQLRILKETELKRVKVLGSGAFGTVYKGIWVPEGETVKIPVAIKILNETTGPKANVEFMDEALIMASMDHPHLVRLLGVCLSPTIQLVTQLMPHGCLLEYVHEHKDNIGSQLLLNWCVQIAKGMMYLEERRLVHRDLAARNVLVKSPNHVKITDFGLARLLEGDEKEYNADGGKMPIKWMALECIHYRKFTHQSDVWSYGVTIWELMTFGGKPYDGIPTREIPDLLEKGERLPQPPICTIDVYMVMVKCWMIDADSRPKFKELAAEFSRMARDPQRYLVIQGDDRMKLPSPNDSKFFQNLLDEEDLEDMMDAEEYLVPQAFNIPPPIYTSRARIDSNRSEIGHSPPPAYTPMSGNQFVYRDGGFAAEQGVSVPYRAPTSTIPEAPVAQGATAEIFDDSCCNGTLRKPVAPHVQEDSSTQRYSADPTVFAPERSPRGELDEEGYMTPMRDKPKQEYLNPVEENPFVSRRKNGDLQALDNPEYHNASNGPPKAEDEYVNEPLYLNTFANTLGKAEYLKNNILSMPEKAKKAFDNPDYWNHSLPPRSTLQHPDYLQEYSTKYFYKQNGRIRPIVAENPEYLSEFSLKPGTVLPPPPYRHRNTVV

Structure (SMILES)	assay	setting	how to read	endpoint	result
O=C1NC(=O)/C(=C/c2ccc(-c3ccc(F)cc3O)o2)S1	enzyme activity	10 µM		remaining activity	68%
CC#CC(=O)N1CCC[C@H]1c1nc(-c2ccc(C(=O)Nc3ccccn3)cc2)c2c(N)nccn12	kinase activity, inhibitor, HotSpot radiometric	100 nM, added: ATP 10 µM		remaining activity	17.7 ± 0.6%
Cc1cc(Nc2cc(N3CCN(C)CC3)nc(Sc3ccc(NC(=O)C4CC4)cc3)n2)[nH]n1	kinase activity, KinaseProfiler	0.03 µM, species human	relative to: control	remaining activity	97%
C=CC(=O)N1CCC[C@@H](n2nc(-c3ccc(Oc4ccccc4)cc3)c3c(N)ncnc32)C1		0.1 µM		remaining activity	67.1%
COc1ccc(F)cc1C(=O)NCc1ccc(-c2nn([C@@H](C)C(F)(F)F)c(N)c2C(N)=O)cc1	kinase activity, inhibitor, HotSpot radiometric	100 nM, added: ATP 10 µM		remaining activity	43%
c1cnc2ccc(Nc3nc(NC4CC4)c4nc[nH]c4n3)cc2c1	kinase activity, inhibitor, SelectScreen kinase profiling	1 µM	relative to: control	remaining activity	72%
C=CC(=O)N1CCC([C@@H]2CCNc3c(C(N)=O)c(-c4ccc(Oc5ccccc5)cc4)nn32)CC1	kinase activity, inhibitor, HotSpot radiometric	100 nM, added: ATP 10 µM		remaining activity	0.1 ± 0.1%
C=CC(=O)N1CCC(COCC(=O)N2CCN(c3nc(-c4cnc(N)nc4C(F)F)nc(N4CCOC[C@@H]4C)n3)CC2)CC1	KINOMEscan	1 µM		remaining binding	100%
COc1cc(F)ccc1-c1ncnc(Nc2cccc(C[S@](C)(=N)=O)c2)n1	kinase activity	10 µM, added: 10 µM ATP		remaining activity	93%
[2H]c1cc(C)c(NC(=O)c2cnc(Nc3cc(N4CCCCC4)nc(C)n3)s2)c(Cl)c1		0.01 µM		inhibition	< 30%
COc1cc(-c2cncc3c2CN(C)Cc2cc(N4CCNCC4)ccc2-3)cc(OC)c1OC	kinase activity	1 µM, human enzyme, added: ATP 10 µM	relative to: DMSO control	remaining activity	112%

A few entries again:
Structure (SMILES)	assay	setting	how to read	endpoint	result
O=C1NC(=O)/C(=C/c2ccc(-c3ccc(F)cc3O)o2)S1	enzyme activity	10 µM		remaining activity	68%
